Assay results pooled from the literature.
Compare with care: the assays were run in different laboratories. ≈ marks a conversion by molar mass, not a printed value.
HLA class I histocompatibility antigen, A alpha chain: HLA class I histocompatibility antigen, A alpha chain (Homo sapiens, UniProt P04439)
NEU1: Sialidase-1 (NEU1, Homo sapiens, UniProt Q99519)
F2: Prothrombin (F2, Homo sapiens, UniProt P00734)
4'-phosphopantetheinyl transferase PptT: 4'-phosphopantetheinyl transferase PptT (Mycobacterium tuberculosis, UniProt O33336)
Chain of UniProt O33336 (whole entry, looked up): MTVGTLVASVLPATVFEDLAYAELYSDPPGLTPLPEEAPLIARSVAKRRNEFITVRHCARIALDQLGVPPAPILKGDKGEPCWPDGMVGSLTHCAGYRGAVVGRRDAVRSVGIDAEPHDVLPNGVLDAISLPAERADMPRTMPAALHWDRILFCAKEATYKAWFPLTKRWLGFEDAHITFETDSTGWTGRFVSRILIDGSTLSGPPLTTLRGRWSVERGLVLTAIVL
Proteasome component C5/PSMB5 chymotrypsin-like site: Proteasome component C5/PSMB5, chymotrypsin-like site (Homo sapiens, UniProt P20618+P28074)
Chain of UniProt P20618 (whole entry, looked up): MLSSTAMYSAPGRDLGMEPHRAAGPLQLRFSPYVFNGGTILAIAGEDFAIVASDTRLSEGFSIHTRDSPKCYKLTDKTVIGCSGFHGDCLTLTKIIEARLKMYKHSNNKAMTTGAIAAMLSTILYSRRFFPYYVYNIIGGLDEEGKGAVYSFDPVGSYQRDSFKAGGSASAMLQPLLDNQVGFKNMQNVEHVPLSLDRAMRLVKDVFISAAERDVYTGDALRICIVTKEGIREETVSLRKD
Chain of UniProt P28074 (whole entry, looked up): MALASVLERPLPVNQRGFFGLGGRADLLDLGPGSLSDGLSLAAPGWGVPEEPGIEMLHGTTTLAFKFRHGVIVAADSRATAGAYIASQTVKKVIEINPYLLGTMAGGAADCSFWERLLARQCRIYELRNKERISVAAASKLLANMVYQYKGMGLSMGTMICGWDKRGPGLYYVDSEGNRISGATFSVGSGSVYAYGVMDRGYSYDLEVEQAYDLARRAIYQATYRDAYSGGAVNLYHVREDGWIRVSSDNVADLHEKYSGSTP
CTSB: Cathepsin B (CTSB, Homo sapiens, UniProt P07858)
Chain of UniProt P11229 (whole entry, looked up): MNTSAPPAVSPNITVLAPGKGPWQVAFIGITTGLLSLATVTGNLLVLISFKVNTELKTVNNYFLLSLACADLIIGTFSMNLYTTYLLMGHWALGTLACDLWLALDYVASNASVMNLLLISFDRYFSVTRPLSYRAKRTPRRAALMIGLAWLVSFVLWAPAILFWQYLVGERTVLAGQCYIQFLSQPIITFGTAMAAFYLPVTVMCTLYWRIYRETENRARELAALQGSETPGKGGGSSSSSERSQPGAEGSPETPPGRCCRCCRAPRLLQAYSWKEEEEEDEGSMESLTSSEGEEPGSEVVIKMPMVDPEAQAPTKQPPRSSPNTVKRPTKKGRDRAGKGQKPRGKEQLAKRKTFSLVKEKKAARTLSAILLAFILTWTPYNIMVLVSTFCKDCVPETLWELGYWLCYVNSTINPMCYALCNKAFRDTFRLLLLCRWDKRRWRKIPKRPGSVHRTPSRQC
Chain of UniProt Q9UPE1 (whole entry, looked up): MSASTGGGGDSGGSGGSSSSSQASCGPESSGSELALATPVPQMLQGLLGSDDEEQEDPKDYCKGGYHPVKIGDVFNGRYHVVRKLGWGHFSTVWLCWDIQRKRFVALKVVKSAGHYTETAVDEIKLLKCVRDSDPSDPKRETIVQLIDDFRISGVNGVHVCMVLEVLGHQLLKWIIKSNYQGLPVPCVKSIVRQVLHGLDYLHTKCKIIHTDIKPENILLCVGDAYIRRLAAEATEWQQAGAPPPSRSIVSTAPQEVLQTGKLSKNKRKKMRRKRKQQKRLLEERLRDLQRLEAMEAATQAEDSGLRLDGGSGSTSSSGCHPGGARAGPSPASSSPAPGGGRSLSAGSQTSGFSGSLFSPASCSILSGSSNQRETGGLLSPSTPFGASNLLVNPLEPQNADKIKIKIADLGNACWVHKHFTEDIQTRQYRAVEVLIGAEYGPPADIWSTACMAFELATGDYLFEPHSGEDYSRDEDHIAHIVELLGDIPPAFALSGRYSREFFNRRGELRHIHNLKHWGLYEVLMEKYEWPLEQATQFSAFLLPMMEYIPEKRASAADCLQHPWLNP
Chain of UniProt Q9Y243 (whole entry, looked up): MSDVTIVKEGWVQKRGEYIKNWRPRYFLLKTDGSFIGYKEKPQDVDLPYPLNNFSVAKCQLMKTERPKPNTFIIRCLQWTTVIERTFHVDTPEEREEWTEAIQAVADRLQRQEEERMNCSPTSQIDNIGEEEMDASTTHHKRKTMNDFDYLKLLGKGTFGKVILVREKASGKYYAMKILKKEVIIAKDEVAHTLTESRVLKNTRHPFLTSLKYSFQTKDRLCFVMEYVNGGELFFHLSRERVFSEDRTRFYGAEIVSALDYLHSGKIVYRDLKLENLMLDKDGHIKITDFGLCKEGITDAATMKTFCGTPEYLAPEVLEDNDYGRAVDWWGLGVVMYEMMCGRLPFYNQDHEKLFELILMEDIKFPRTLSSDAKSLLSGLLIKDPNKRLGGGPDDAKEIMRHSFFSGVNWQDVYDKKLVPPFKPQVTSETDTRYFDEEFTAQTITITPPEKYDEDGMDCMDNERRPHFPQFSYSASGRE
Chain of UniProt Q93009 (whole entry, looked up): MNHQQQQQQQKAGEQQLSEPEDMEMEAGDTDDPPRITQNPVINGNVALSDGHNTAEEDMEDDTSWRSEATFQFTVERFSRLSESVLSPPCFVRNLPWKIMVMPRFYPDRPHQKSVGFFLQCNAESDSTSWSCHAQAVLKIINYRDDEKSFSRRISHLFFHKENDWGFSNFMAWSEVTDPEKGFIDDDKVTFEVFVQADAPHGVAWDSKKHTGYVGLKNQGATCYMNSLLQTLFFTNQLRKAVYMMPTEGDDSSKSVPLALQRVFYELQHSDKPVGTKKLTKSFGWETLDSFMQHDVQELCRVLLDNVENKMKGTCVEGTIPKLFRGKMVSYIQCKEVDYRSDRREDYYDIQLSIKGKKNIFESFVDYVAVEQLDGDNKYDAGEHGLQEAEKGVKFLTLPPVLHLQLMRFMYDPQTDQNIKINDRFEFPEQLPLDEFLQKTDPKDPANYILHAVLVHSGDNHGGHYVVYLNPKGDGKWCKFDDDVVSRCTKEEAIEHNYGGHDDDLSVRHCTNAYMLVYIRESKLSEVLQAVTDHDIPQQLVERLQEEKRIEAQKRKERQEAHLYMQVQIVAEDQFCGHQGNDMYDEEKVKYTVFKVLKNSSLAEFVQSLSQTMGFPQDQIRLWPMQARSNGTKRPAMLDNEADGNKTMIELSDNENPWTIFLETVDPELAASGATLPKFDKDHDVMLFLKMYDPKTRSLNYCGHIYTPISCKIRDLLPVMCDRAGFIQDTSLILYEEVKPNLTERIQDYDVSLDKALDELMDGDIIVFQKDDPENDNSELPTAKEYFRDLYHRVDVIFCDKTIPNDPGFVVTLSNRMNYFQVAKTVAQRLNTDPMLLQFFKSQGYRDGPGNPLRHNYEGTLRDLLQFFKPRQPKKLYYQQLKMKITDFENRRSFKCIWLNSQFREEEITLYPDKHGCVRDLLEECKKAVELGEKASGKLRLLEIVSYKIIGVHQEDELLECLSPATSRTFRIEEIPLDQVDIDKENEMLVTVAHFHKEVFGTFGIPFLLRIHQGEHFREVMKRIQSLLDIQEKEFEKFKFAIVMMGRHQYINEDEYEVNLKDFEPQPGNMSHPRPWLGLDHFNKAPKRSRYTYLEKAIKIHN
Chain of UniProt P27487 (whole entry, looked up): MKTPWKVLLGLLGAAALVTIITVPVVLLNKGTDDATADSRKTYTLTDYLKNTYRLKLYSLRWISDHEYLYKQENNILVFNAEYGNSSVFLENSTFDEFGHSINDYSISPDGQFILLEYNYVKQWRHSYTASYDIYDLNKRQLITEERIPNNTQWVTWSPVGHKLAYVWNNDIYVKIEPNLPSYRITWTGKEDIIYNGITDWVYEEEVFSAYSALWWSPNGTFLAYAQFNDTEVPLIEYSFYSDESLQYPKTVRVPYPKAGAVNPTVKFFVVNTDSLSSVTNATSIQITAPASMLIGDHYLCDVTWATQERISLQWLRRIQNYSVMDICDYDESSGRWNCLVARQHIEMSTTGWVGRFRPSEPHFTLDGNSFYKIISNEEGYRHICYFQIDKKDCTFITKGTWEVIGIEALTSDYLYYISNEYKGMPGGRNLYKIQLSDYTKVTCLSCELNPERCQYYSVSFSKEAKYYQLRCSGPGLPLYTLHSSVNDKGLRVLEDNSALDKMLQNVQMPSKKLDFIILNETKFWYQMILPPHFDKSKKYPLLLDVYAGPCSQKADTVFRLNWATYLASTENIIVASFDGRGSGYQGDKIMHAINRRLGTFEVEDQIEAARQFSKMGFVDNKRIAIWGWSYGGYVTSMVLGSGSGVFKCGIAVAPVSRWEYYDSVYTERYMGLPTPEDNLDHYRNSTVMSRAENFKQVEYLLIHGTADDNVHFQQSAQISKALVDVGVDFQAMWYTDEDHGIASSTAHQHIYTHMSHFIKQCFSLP
Chain of UniProt P78536 (whole entry, looked up): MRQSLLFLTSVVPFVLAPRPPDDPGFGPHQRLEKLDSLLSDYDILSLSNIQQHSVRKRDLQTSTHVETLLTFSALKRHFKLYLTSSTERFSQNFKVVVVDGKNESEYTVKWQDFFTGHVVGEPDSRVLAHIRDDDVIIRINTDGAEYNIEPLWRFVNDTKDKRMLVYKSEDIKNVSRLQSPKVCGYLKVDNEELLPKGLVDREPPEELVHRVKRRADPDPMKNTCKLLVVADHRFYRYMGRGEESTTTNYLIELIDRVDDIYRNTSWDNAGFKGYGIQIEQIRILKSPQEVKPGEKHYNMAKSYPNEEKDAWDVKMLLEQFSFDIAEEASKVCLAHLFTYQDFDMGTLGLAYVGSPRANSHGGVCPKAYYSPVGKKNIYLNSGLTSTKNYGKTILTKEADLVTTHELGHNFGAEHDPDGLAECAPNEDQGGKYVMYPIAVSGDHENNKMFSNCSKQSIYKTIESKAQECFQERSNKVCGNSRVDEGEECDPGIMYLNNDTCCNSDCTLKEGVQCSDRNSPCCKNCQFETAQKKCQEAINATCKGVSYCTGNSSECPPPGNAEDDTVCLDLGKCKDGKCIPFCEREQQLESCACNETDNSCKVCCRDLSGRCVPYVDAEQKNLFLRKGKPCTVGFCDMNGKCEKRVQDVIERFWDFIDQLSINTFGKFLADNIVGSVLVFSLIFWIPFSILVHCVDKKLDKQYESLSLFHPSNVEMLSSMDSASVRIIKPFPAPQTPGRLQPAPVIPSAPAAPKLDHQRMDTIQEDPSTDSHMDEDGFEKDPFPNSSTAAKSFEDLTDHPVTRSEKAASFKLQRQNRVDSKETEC

CN1C(=O)[C@@]23C[C@]4([C@]56C[C@@]78SS[C@@](CO)(C(=O)N7[C@H]5Nc5ccccc56)N(C)C8=O)c5ccccc5N[C@@H]4N2C(=O)[C@]1(CO)SS3  IC50 (NSD3 (Homo sapiens, UniProt Q9BZ95); enzyme activity, inhibitor): 46.9 nM
CC(C)[C@H](NC(=O)[C@H](Cc1c[nH]cn1)NC(=O)[C@H](CCC(=O)O)NC(=O)[C@H](Cc1ccccc1)NC(=O)[C@H](CCC(N)=O)NC(=O)[C@H](C)N)C(=O)N1CCC[C@H]1C(=O)N[C@@H](CCC(N)=O)C(=O)N[C@@H](Cc1ccc(O)cc1)C(=O)O  IC50 (HLA class I histocompatibility antigen, A alpha chain; cell-free assay): 100 nM
CN1C[C@@H]2C[C@H]1CN2c1nccc(-c2cnn3ncccc23)n1  IC50 (DYRK1A (Homo sapiens, UniProt Q13627); cell-free assay, TR-FRET): 6170 nM
CC(C)(C)CN[C@H]1[C@H]([C@H](O)[C@H](O)CO)OC(C(=O)O)=C[C@@H]1O  IC50 (NEU1; enzyme activity, inhibitor): 115000 nM
CSCC[C@H](NC(=O)[C@@H](N)CCCNC(=N)N)C(=O)N[C@@H](Cc1c[nH]c2ccccc12)C(=O)N[C@@H](CO)C(=O)N[C@@H](CCCCN)C(=O)N1CCC[C@H]1C(=O)N[C@@H](CC(C)C)C(=O)N[C@@H](CCC(N)=O)C(=O)N[C@@H](Cc1ccccc1)C(=O)O  IC50 (HLA class I histocompatibility antigen, A alpha chain; cell-free assay): 35 nM
O=C(O)C1=C[C@H](O)[C@@H](NCc2ccc(-c3ccccc3)cc2)[C@H]([C@H](O)[C@H](O)CO)O1  IC50 (NEU1; enzyme activity, inhibitor): > 500000 nM
CNC(=O)[C@H](Cc1c[nH]c2ccccc12)NC(=O)[C@@H](CC(=O)NO)CC(C)C  IC50 (ADAM17 (Homo sapiens, UniProt P78536); enzyme activity, inhibitor): 38.4 nM
CCCCCC(=O)N(C)[C@H]1[C@H]([C@H](O)[C@H](O)CO)OC(C(=O)O)=C[C@@H]1O  IC50 (NEU1; enzyme activity, inhibitor): 5500 nM
C#Cc1ccc2c(c1)C(c1ccccn1)=NCc1c(-c3cnco3)ncn1-2  kinetic solubility (water; 40 min, 37 °C): 182 µg/mL (≈ 518 µM)
CSCC[C@H](NC(=O)[C@@H](N)CCCCN)C(=O)N[C@@H](Cc1ccc(O)cc1)C(=O)N1CCC[C@H]1C(=O)N[C@H](C(=O)NCC(=O)N[C@@H](Cc1ccccc1)C(=O)N[C@H](C(=O)N[C@@H](Cc1ccc(O)cc1)C(=O)O)[C@@H](C)O)[C@@H](C)O  IC50 (HLA class I histocompatibility antigen, A alpha chain; cell-free assay): 17 nM
CC(C)C[C@H](NC(=O)[C@@H](NC(=O)N[C@@H](Cc1ccccc1)C(=O)O)[C@@H]1CCN=C(N)N1)C(=O)N[C@H](C=O)Cc1ccccc1  IC50 (Cathepsin G (CTSG, Homo sapiens, UniProt P08311); enzyme activity, inhibitor): 4250 nM
CSCC[C@H](NC(=O)[C@H](C)N)C(=O)N[C@@H](Cc1ccc(O)cc1)C(=O)NCC(=O)N[C@@H](CCCNC(=N)N)C(=O)N[C@@H](CO)C(=O)N[C@@H](CC(C)C)C(=O)N[C@@H](CCC(N)=O)C(=O)N[C@@H](Cc1ccccc1)C(=O)O  IC50 (HLA class I histocompatibility antigen, A alpha chain; cell-free assay): 31 nM
CC(O)(P(=O)(O)O)P(=O)(O)O  IC50 (ENO1 (Candida albicans, UniProt P30575); enzyme activity, inhibitor, absorbance): > 50000 nM
Cc1nn(C)cc1-c1nc2c(N3CCN(Cc4ccc(Cl)cc4)CC3)c(Cl)cnc2[nH]1  remaining binding (SRPK3 (Homo sapiens, UniProt Q9UPE1); binding, competition with immobilised ligand; 1 µM): 39%
CC[C@H](C)[C@H](NC(=O)[C@H](CCCCN)NC(=O)[C@H](CO)NC(=O)[C@H](Cc1ccccc1)NC(=O)[C@H](CCSC)NC(=O)[C@@H](N)CCCCN)C(=O)N[C@@H](CCSC)C(=O)N[C@H](C(=O)N[C@@H](Cc1ccc(O)cc1)C(=O)O)[C@@H](C)O  IC50 (HLA class I histocompatibility antigen, A alpha chain; cell-free assay): 12 nM
N.N.[Cl][Pt][Cl]  inhibition (SU-DHL-4; cell growth or viability, ATP luminescence; 10 µM, 72 h): 100%
N=c1c2c(-c3ccccc3)c(-c3ccccc3)n(Cc3ccccc3)c2ncn1[C@H]1CC[C@H](O)CC1  half-life (metabolic stability; human, liver microsomes; 1 µM): > 2 h
CCC(C(=O)Nc1cc(NC2CNC2)ccc1C)n1cccc2nc(SCc3ccc(F)cc3)nc1-2 (stereo not drawn)  IC50 (F2; enzyme activity, inhibitor): > 100000 nM
O=S(=O)(O)C(F)(F)C(F)(F)C(F)(F)C(F)(F)C(F)(F)C(F)(F)C(F)(F)C(F)(F)F  IC50 (AKR1C2 (Homo sapiens, UniProt P52895); enzyme activity, inhibitor, fluorescence): > 50000 nM
CCC(C(=O)Nc1cc(NC2CCNC2)ccc1C)n1cc(Br)cc2nc(SCc3ccc(F)cc3)nc1-2 (stereo not drawn)  IC50 (USP7 (Homo sapiens, UniProt Q93009); enzyme activity, inhibitor): > 100000 nM
CSc1nc2ccc(Cl)cc2c(=O)n1Cc1ccc[n+](C)c1  IC50 (4'-phosphopantetheinyl transferase PptT; enzyme activity, inhibitor, FP): > 100000 nM
CC[C@H](C)[C@H](NC(=O)[C@@H]1CCCN1C(=O)[C@H](CCCCN)NC(=O)[C@H](Cc1ccc(O)cc1)NC(=O)[C@H](CCSC)NC(=O)[C@@H](N)CCCNC(=N)N)C(=O)N[C@H](C(=O)N[C@@H](Cc1c[nH]cn1)C(=O)N[C@@H](Cc1ccccc1)C(=O)O)[C@@H](C)O  IC50 (HLA class I histocompatibility antigen, A alpha chain; cell-free assay): 14 nM
CC(C)C[C@H](NC(=O)[C@H]1O[C@@H]1C(=O)O)C(=O)NCCCCN=C(N)N  IC50 (CTSC (Homo sapiens, UniProt P53634); enzyme activity, inhibitor): 460 nM
CCC(C(=O)Nc1cc(NC2CCNCC2)ccc1C)n1cc(Cl)cc2nc(SCc3ccc(F)cc3)nc1-2 (stereo not drawn)  IC50 (F2; enzyme activity, inhibitor): > 100000 nM
CC(C)C[C@H](NC(=O)[C@H](Cc1c[nH]c2ccccc12)NC(=O)[C@H](C)NC(=O)OCc1ccccc1)C(=O)C(=O)Nc1ccccc1  IC50 (Proteasome component C5/PSMB5 chymotrypsin-like site; enzyme activity in cells, inhibitor): 148 nM
Nc1ncc(-c2nc(N3CCOCC3)nc(N3CCOCC3)n2)c(C(F)F)n1  remaining signal (CHRM1 (Homo sapiens, UniProt P11229); cell-free assay, radioligand; 10 µM): 111%
COc1ncccc1-c1cnn2ccc(N3CCN(C(=O)OC(C)C)CC3)nc12  remaining binding (CILK1 (Homo sapiens, UniProt Q9UPZ9); binding, competition with immobilised ligand; 1 µM): 100%
CSCC[C@H](NC(=O)[C@@H](N)Cc1ccc(O)cc1)C(=O)N[C@@H](Cc1ccc(O)cc1)C(=O)N[C@H](C(=O)N[C@@H](CCCCN)C(=O)N[C@@H](Cc1ccccc1)C(=O)N[C@@H](Cc1c[nH]cn1)C(=O)N[C@H](C(=O)N[C@@H](Cc1ccc(O)cc1)C(=O)O)[C@@H](C)O)[C@@H](C)O  IC50 (HLA class I histocompatibility antigen, A alpha chain; cell-free assay): 100 nM
CCC(C(=O)Nc1cc(NC2CCOCC2)ccc1C)n1cc(Br)cc2nc(SCc3ccc(F)cc3)nc1-2 (stereo not drawn)  IC50 (CTSB; enzyme activity, inhibitor): > 100000 nM
CC(C)C[C@H](NC(=O)OCc1ccccc1)C(=O)N[C@@H](CC(C)C)C(=O)N[C@@H](CC(C)C)C(=O)C(=O)Nc1cccc2cnccc12  IC50 (Proteasome component C5/PSMB5 chymotrypsin-like site; enzyme activity in cells, inhibitor): 63.1 nM
c1csc(-c2noc(C[C@H]3CN4CCC3CC4)n2)c1  IC50 (CHRNA9 (Homo sapiens, UniProt Q9UGM1); ion current, two-electrode voltage clamp; oocytes): 2600 nM
COc1ccc(C[C@H](NC(=O)[C@H](C)NC(=O)C23CC4CC(CC(C4)C2)C3)C(=O)N[C@@H](CC(C)C)C(=O)C(=O)Nc2ccccc2)cc1  IC50 (Proteasome component C5/PSMB5 chymotrypsin-like site; enzyme activity in cells, inhibitor): 1450 nM
[2H]c1c([2H])c([C@]2([2H])CCCN2C(=O)C(C)(C)Oc2ccc3cn[nH]c3c2)c([2H])c([2H])c1C([2H])([2H])[2H]  remaining binding (AKT3 (Homo sapiens, UniProt Q9Y243); binding, competition with immobilised ligand; 1 µM): 98%
COc1cc(CCNC(C)c2ccccc2O)c(OC)cc1C#N (stereo not drawn)  Ki (ADRB2 (Homo sapiens, UniProt P07550); cell-free assay, radioligand): 279 nM
CC(C)[C@H](N)C(=O)N1CCC[C@H]1C(=O)N[C@H](C(=O)N1CCC[C@H]1C(=O)N1CCC[C@H]1C(=O)O)C(C)C  IC50 (DPP4 (Homo sapiens, UniProt P27487); enzyme activity, inhibitor, absorbance; pH 8): 324000 nM
CCC(C(=O)Nc1cc(NC2COC2)ccc1C)n1cc(Br)cc2nc(SCc3ccc(F)cc3)nc1-2 (stereo not drawn)  IC50 (CTSB; enzyme activity, inhibitor): > 100000 nM
CC[C@H](C)[C@H](NC(=O)[C@H](Cc1c[nH]cn1)NC(=O)CNC(=O)[C@H](Cc1ccc(O)cc1)NC(=O)[C@H](CCC(N)=O)NC(=O)[C@@H](N)Cc1c[nH]cn1)C(=O)N[C@@H](CC(C)C)C(=O)N[C@@H](CCC(N)=O)C(=O)N[C@@H](Cc1ccc(O)cc1)C(=O)O  IC50 (HLA class I histocompatibility antigen, A alpha chain; cell-free assay): 3.9 nM
NC(=S)c1cncc(Cn2c(=S)[nH]c3ccc(Cl)cc3c2=O)c1  IC50 (4'-phosphopantetheinyl transferase PptT; enzyme activity, inhibitor, FP): 160 nM
CC(C)(C)c1cn([C@H]2[C@H]([C@H](O)[C@H](O)CO)OC(C(=O)O)=C[C@@H]2O)nn1  IC50 (NEU1; enzyme activity, inhibitor): 220000 nM
